{"data": "Measurements pooled from the literature", "note": "A part holds a random share of what one study measured. Several values in a cell are separate wells, animals, samples, runs or records."}
{"data": "Sample 1", "target": "Replicase polyprotein 1ab, main protease (rep, Severe acute respiratory syndrome coronavirus 2, UniProt P0DTD1)", "observed": "enzyme activity", "action": "inhibitor", "tested at": "20 µM", "notes": "hit confirmation, with DTT"}
{"Compound": "O=C1C=Cc2cc(Br)ccc2C1=O", "inhibition": "83.1% and 37.4%"}
{"Compound": "CSc1ccc(C(=O)c2[nH]c(=O)[nH]c2C)cc1", "inhibition": "-0.527%"}
{"Compound": "O=C1C(Cl)=C(Cl)C(=O)C(Cl)=C1Cl", "inhibition": "99.5%"}
{"Compound": "CCCCCCCCCCCCCCCC[n+]1ccn(Cc2ccccc2)c1C", "inhibition": "36.3%"}
{"Compound": "O=C(O)C1=CC(=C(c2ccc(O)c(C(=O)O)c2)c2ccc(O)c(C(=O)O)c2)C=CC1=O", "inhibition": "88.7%"}
{"data": "Sample 2", "target": "Replicase polyprotein 1ab, nsp13 helicase (rep, Severe acute respiratory syndrome coronavirus 2, UniProt P0DTD1)", "action": "inhibitor", "tested at": "20 µM"}
{"SMILES": "Cn1nc(C(C)(C)C)cc1C(=O)N[C@@H](Cc1cccc(Cl)c1)C(=O)NCC#N", "inhibition [%]": 2.21}
{"SMILES": "NC[C@H]1O[C@H](O[C@H]2[C@H](O)[C@@H](O[C@H]3O[C@H](CO)[C@@H](O)[C@H](N)[C@H]3O)[C@H](N)C[C@@H]2N)[C@H](N)C[C@@H]1O", "inhibition [%]": 3.43}
{"SMILES": "C#C[C@]1(OC(C)=O)CC[C@H]2[C@@H]3CCC4=CC(=O)CC[C@@H]4[C@H]3CC[C@@]21C", "inhibition [%]": 2.19}
{"SMILES": "CC[N+](CC)(CC)CCOc1cccc(OCC[N+](CC)(CC)CC)c1OCC[N+](CC)(CC)CC", "inhibition [%]": 5.14}
{"SMILES": "CC(C)c1onc(-c2c(Cl)cccc2Cl)c1COc1ccc(/C=C/c2cccc(C(=O)O)c2)c(Cl)c1", "inhibition [%]": 2.37}
{"SMILES": "COC(=O)c1cc(OC)c2c(c1-c1c(CO)cc(OC)c3c1OCO3)OCO2", "inhibition [%]": 3.3}
{"SMILES": "CCc1cccc(CC)c1NC(=O)N1Cc2[nH]nc(NC(=O)c3ccc(N4CCN(C)CC4)cc3)c2C1", "inhibition [%]": -1.86}
{"SMILES": "C1COC(NC(C2CC2)C2CC2)=N1", "inhibition [%]": 5.75}
{"SMILES": "CC(C)(C)C1CCc2c(sc(NC(=O)c3ccco3)c2C(=O)O)C1 (stereo not drawn)", "inhibition [%]": 0.65}
{"SMILES": "C=Cc1cc(O)cc2nc(-c3ccc(O)c(F)c3)oc12", "inhibition [%]": 6.73}
{"SMILES": "Oc1cc2c(cc1O)[C@H]1c3ccccc3CN[C@@H]1CC2 (racemic)", "inhibition [%]": -0.42}
{"SMILES": "CC(=O)Nc1ccc(NC(=S)NC(=O)c2ccc(C(C)(C)C)cc2)cc1", "inhibition [%]": -0.84}
{"SMILES": "CCCCCCOc1cc2c(cc1N(C)c1ncc(C(=O)O)cn1)C(C)(C)CCC2(C)C", "inhibition [%]": 2.78}
{"SMILES": "CCCCCCCCCCCC(=O)O", "inhibition [%]": 3.69}
{"SMILES": "CCCCN(CC)c1nc(C)nc2c1c(C)c(C)n2-c1c(C)cc(C)cc1C", "inhibition [%]": -3.32}
{"SMILES": "CCOC(N)=O", "inhibition [%]": 6.14}
{"SMILES": "NC(=O)c1ncn([C@@H]2O[C@H](CO)[C@@H](O)[C@H]2O)n1", "inhibition [%]": 1.91}
{"SMILES": "NNC(=O)CN1C(=O)CN=C(c2ccccc2)c2cc(Br)ccc21", "inhibition [%]": 9.92}
{"data": "Sample 3", "target": "Ras GTPase-activating protein-binding protein 1, full length (G3BP1, Homo sapiens, UniProt Q13283)", "technique": "RNA Bind-n-Seq", "form": "RNA", "sample": "in vitro", "tested at": "200 nM", "notes": "whole 134-nt RNA, ends assumed", "added": "150 mM KCl", "reference": "input library", "direction": "higher = stronger binding", "UniProt Q13283, sequence (whole entry, looked up)": "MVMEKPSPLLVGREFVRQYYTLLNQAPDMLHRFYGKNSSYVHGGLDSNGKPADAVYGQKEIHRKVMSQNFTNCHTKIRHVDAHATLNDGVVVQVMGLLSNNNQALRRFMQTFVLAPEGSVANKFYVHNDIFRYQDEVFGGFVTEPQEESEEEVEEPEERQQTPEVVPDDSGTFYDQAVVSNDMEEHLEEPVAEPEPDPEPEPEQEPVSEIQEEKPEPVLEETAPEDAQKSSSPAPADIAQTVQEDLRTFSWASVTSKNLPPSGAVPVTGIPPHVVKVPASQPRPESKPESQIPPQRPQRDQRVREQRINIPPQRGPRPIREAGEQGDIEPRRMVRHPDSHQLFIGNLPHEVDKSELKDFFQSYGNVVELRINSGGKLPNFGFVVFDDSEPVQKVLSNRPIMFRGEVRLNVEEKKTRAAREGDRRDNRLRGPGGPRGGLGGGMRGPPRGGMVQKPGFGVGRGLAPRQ"}
{"Strand": "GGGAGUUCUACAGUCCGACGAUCUGGCCCUGGUGGCAUGCGGGGAGGAAGAGGUGGCCUCAUGGAUCGUGGUGGUCCCGGUGGAAUGUUCAGAGGUGACCGUGGUGGAGACAGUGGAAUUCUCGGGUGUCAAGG", "log2 enrichment": 0.188}
{"Strand": "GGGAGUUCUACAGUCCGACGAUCUGCCUGUAUGGAGUGGAAUGAAUGUUGCUGGUGUCUCUCUGAAGACUCUGCACCCAGAUUUAGGGACUGAUAAAGAUAAGGAACAGUGGAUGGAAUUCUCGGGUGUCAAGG", "log2 enrichment": -0.482}
{"Strand": "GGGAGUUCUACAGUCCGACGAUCUUCACACCAAGCUGGGGAACAUCAAGACCUUAAACCUGGCAGGCAACCUCCUAGAGAGUCUGAGUGGCCUGCACAAGCUCUACUCACUGGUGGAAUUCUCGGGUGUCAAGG", "log2 enrichment": -1.3}
{"Strand": "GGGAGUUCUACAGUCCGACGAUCUAACUUUAGAGGAGGAGCUGAUGGAUAUGGCAGUGGACGUGGAUUUGGGGAUGGCUAUAAUGGGUAUGGAGGAGGACCUGGAGGUGGCAAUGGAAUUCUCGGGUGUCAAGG", "log2 enrichment": 0.508}
{"Strand": "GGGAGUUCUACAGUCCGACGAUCUUGGGUCCAGACUGCGCCACAGCCUCUCGGGAGACGUGGGCCCUCGGAACCUUUUUAGUGCCGGACUCCGGGCCGCAGGCAGUCCCGCGGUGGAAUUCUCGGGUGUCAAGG", "log2 enrichment": -2.72}
{"Strand": "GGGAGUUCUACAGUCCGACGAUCCAAGUCCUGUGCUACACAUCGUAUGUACCGAAUCGGGAAAGGGAAAAAGGGUGGGAAAGUAUUAUGUUACGCCGUUCGGAUCUGCACUUCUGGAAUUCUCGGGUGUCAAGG", "log2 enrichment": 0.78}
{"Strand": "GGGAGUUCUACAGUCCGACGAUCCUCAAGUCCUGUGCUACACAUCGUAUGUACCGAAUCGGGGAAGGAAGGAAGGGAAAGUAUUAUGUUACGCCGUUCGGAUCUGCACUUCCAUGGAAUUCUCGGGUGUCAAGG", "log2 enrichment": -0.045}
{"Strand": "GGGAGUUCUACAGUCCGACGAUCUGGGAGGUGAAUUUUGUUUAUUUUUUUAGCUCAUUUCCAGGGGUGGGAAUUUUUUUUUAAUAUGUGUCAUGAAUAAAGUUGUUUUUGAAAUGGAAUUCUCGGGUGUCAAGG", "log2 enrichment": -0.0898}
{"data": "Sample 4", "target": "PABPC1L2, full length, GST fusion (mouse, UniProt A0ABA7IW68)", "technique": "RNAcompete", "form": "RNA", "sample": "in vitro", "tested at": "20 nM", "notes": "7-mer, probes averaged, single round", "reference": "mean of 7-mers", "direction": "higher = stronger binding", "Construct (chain)": "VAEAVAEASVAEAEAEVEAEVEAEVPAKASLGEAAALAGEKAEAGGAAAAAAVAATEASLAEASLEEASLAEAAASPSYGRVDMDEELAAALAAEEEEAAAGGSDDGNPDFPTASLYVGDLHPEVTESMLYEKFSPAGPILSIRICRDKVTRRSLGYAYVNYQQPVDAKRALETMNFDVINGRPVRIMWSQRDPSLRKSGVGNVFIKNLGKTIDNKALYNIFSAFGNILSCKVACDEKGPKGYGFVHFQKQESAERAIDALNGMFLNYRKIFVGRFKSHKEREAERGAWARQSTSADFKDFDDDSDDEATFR"}
{"Strand": "UUAUCUU", "7-mer Z-score": -0.157}
{"Strand": "GAGAGAA", "7-mer Z-score": 0.177}
{"Strand": "AGAGAGG", "7-mer Z-score": 0.285}
{"Strand": "GGGCACC", "7-mer Z-score": 0.24}
{"Strand": "GUGCCCG", "7-mer Z-score": -0.389}
{"Strand": "CUCACGU", "7-mer Z-score": -0.282}
{"Strand": "GGCCCCC", "7-mer Z-score": -0.382}
{"Strand": "UGGCCGA", "7-mer Z-score": -0.0736}
{"data": "Sample 5", "cell line": "HEK-293T/ACE2", "tested at": "concentration not given", "time": "16 (unit not given)", "reference": "vehicle"}
{"Compound": "CC(C)CC(N(C)C)C1(c2ccc(Cl)cc2)CCC1 (stereo not drawn)", "viability [%]": 99.7}
{"Compound": "CC1(C)NC(=O)N(c2ccc([N+](=O)[O-])c(C(F)(F)F)c2)C1=O", "viability [%]": 98.6}
{"Compound": "C[N+]1(C)[C@@H]2CC[C@H]1C[C@@H](OC(=O)C(O)c1ccccc1)C2 (stereo partly drawn)", "viability [%]": 101}
{"note": "A few entries again (sample 2):"}
{"SMILES": "CC[N+](CC)(CC)CCOc1cccc(OCC[N+](CC)(CC)CC)c1OCC[N+](CC)(CC)CC", "inhibition [%]": 5.14}
{"SMILES": "CCCCCCOc1cc2c(cc1N(C)c1ncc(C(=O)O)cn1)C(C)(C)CCC2(C)C", "inhibition [%]": 2.78}
{"SMILES": "NC(=O)c1ncn([C@@H]2O[C@H](CO)[C@@H](O)[C@H]2O)n1", "inhibition [%]": 1.91}
